Results collected from several papers.
Lines come from different studies, so protocols differ.
Cell line: HepG2

The IC50 of `C=C(CO)[C@H]1Cc2c(ccc3c2O[C@@H]2COc4cc(OC)c(OC)cc4[C@]2(O)C3=O)O1` is reported as 32.6 µM (cell growth or viability, MTT; 72 h).
The IC50 of `CCCCCCCCCCCCC(=O)O.O=C1CCCC2C3CCCN4CCCC(CN12)C34` (centres unmarked) is reported as 300 µM (cell growth or viability, MTT; 24 h).
With `O=C(Nc1nc2c(ncn2C2OC(COP(=O)(O)O)C(O)C2O)c(=O)[nH]1)c1ccccc1` (centres unmarked) the IC50 was > 100 µM (cell growth or viability).
`CC[C@@]1(O)C(=O)OCc2c1cc1n(c2=O)Cc2cc3cc(OC(=O)CCCC(=O)NCC(=O)N[C@@H](Cc4ccccc4)C(=O)N[C@@H](Cc4ccccc4)C(=O)N[C@@H](Cc4ccc(OP(=O)(O)O)cc4)C(=O)NCCSSCCNC(=O)CCC(=O)N[C@@H](CCC(=O)O)C(=O)N[C@@H](CCCNC(=N)N)C(=O)NCC(=O)N[C@@H](CC(=O)O)C(=O)O)ccc3nc2-1` gave an IC50 of 0.08 µM (cell growth or viability, MTT).
With `C=C1C(=O)O[C@H]2C[C@H](C)C(/C=C/C(C)=O)=CC[C@H]12` the IC50 was 49 µM (cell growth or viability, MTT; 24 h).
With `CNC(=O)CC[C@@H](NC(=O)[C@@H](Cc1ccc(OP(=O)(O)O)cc1)NC(=O)[C@@H](Cc1ccccc1)NC(=O)[C@@H](Cc1ccccc1)NC(=O)Cc1ccc2ccccc2c1)C(=O)NC` the IC50 was 111 µM (cell growth or viability, MTT).
For `c1cc2c(s1)CCOC21CCN(Cc2ccc3c(c2)OCCO3)CC1`, the IC50 was > 50 µM (cell growth or viability, ATP luminescence; 48 h).
`CNC(=O)c1cc(Oc2ccc(NC(=O)c3ccc(-c4cccc(OC(=O)CCC(=O)OC5OC6OC7(C)CCC8C(C)CCC(C5C)C68OO7)c4)cn3)cc2)ccn1` (centres unmarked) has an IC50 of 4.49 µM (cell growth or viability, MTT; 72 h).
For `CNc1nc(SC)nc2ccccc12`, the IC50 was > 50 µM (cell growth or viability, ATP luminescence; 48 h).
`CNC(=O)c1cc(Oc2ccc(NC(=O)c3cc(-c4ccccc4OC(=O)CCC(=O)OC4OC5OC6(C)CCC7C(C)CCC(C4C)C57OO6)ccn3)cc2)ccn1` (centres unmarked) has an IC50 of 7.23 µM (cell growth or viability, MTT; 72 h).
The IC50 of `CC(C)=CCC[C@@](C)(O)[C@H]1CC[C@]2(C)[C@@H]1CC[C@@H]1[C@@]3(C)CCC(=O)C(C)(C)[C@@H]3CC[C@]12C` is reported as 25.6 µM (cell growth or viability, SRB).
`C[C@@H]1O[C@@H](O[C@H]2[C@H](O[C@H]3CC[C@@]4(C)C(CC[C@]5(C)C4CC=C4C6CC(C)(C)CC[C@]6(C(=O)O)CC[C@]45C)[C@]3(C)CO)OC[C@H](O)[C@@H]2O)[C@H](O)[C@H](O[C@@H]2O[C@H](CO)[C@@H](O)[C@H](O)[C@H]2O)[C@H]1O` (some centres unmarked) gave an IC50 of 8.1 µM (NF-κB activity, inhibitor, luciferase; TNF-stimulated).
With `Cc1ccc2nc(C)c(C(=O)NCc3cccs3)n2c1` the IC50 was > 25 µM (cell growth or viability, ATP luminescence; 48 h).
The IC50 of `O=C1CC2(C1)C(=O)[O][Pt]1([Cl])([O]C(=O)C(Cl)Cl)([NH][C@@H]3CCCC[C@H]3[NH]1)[O]C2=O` is reported as 1.35 µM (cell growth or viability, MTT).

Repeated from above:
`CNC(=O)c1cc(Oc2ccc(NC(=O)c3cc(-c4ccccc4OC(=O)CCC(=O)OC4OC5OC6(C)CCC7C(C)CCC(C4C)C57OO6)ccn3)cc2)ccn1` (centres unmarked) has an IC50 of 7.23 µM (cell growth or viability, MTT; 72 h).
The IC50 of `C=C(CO)[C@H]1Cc2c(ccc3c2O[C@@H]2COc4cc(OC)c(OC)cc4[C@]2(O)C3=O)O1` is reported as 32.6 µM (cell growth or viability, MTT; 72 h).
